Measurements from different studies.
Lines come from different studies, so protocols differ. ± marks the error that the study gave.

O=C(Nc1c(Cl)cncc1Cl)c1ccc(OC(F)F)c(OCC2CC2)c1 has a Cmax of 1.27 ng/mL (human adolescents, 12-17 years, plasma; topical, 0.3% cream once daily, day 15).
The Cmax of CO[C@H]1C[C@@H]2CC[C@@H](C)[C@@](O)(O2)C(=O)C(=O)N2CCCC[C@H]2C(=O)O[C@H]([C@H](C)C[C@@H]2CC[C@@H](O)[C@H](OC)C2)CC(=O)[C@H](C)/C=C(\C)[C@@H](O)[C@@H](OC)C(=O)[C@H](C)C[C@H](C)/C=C/C=C/C=C/1C is reported as 10.7 ng/mL (healthy adult human, blood; oral, 0.5 mg single dose, geometric mean, with: ritonavir-containing 3D regimen).
For CC(C)(Sc1ccncc1-c1ccc(C#N)c2ccccc12)C(=O)O, the Cmax was 16.7 ng/mL (humans, male, normal renal function, fasted, plasma; oral, 15 mg).
The Cmax of CC(C)(C)OC[C@@H]1C(=O)NCCN1C(=O)C[C@H](N)Cc1cc(F)c(F)cc1F is reported as 6.79 ± 1.4 ng/mL (human, male, plasma; oral, single dose, fixed-dose combination with metformin, fasted).
For Cn1ncc(Cl)c1-c1cc(C(=O)N[C@H](CN)Cc2ccc(F)c(F)c2)oc1Cl, the Cmax was 24.3 to 32.7 ng/mL (human patients, plasma; oral, 10 mg once daily, day 8, repeat dose).
O=C(Cc1cccc(OC(F)(F)F)c1)Nc1ccc(CCCCc2nnc(NC(=O)Cc3ccccn3)s2)nn1 gave a Cmax of 395 ng/mL (human patients, plasma; oral, 100 mg three times daily fasted, cycle 1 day 15 steady state).
The Cmax of CC(=O)N1CCN(c2ccc(OCC3COC(Cn4ccnc4)(c4ccc(Cl)cc4Cl)O3)cc2)CC1 (stereo not shown) is reported as 2070 ng/mL (healthy male human; oral, 200 mg, single dose alone).
For CC(=O)O[C@H]1C(=O)[C@@]2(C)[C@H]([C@H](OC(=O)c3ccccc3)[C@]3(O)C[C@H](OC(=O)[C@H](O)[C@@H](NC(=O)c4ccccc4)c4ccccc4)C(C)=C1C3(C)C)[C@]1(OC(C)=O)CO[C@@H]1C[C@@H]2O, the Cmax was 1220 ± 480 nM (human patients on multiple protease inhibitors, plasma; iv, 100 mg/m^2 over 3 h, cycle 1).
The Cmax of CCCCOC(=O)N1CCN(C(=O)[C@H](CP(=O)(O)O)NC(=O)c2cc(N3CC[C@H](OC)C3)nc(-c3ccccc3)n2)CC1 is reported as 210 ng/mL (healthy human, plasma; subcutaneous, 4 mg, with: rifampin 600 mg i.v.; geometric mean).
With CCN1CCN(Cc2ccc(Nc3ncc(F)c(-c4cc(F)c5nc(C)n(C(C)C)c5c4)n3)nc2)CC1 the Cmax was 113 ng/mL (population PK model; healthy human subjects, plasma; oral, 200 mg single dose).
C[C@H]1CN(C2COC2)CCN1c1ccc(Nc2cc(-c3ccnc(N4CCn5c(cc6c5CC(C)(C)C6)C4=O)c3CO)cn(C)c2=O)nc1 has a Cmax of 192 ± 64.7 ng/mL (healthy human, both sexes, plasma; oral, 100 mg, with: itraconazole oral solution 200 mg, steady state).
For COc1cc2c(cc1OC)[C@H]1CC(=O)[C@H](CC(C)C)CN1CC2 (racemic), the Cmax was 0.29 ng/mL (human CYP2D6 extensive metabolizers, plasma; oral, 25 mg, fasted, arithmetic mean).
O=C(CCCCCCC(=O)Nc1ccccc1)NO gave a Cmax of 445 nM (human, serum; oral, 100 mg three times daily, 14 days, median, with: idarubicin).
For Cc1cccc(C)c1N(CC(=O)Nc1ccc(-c2ncon2)cc1)C(=O)C1CCS(=O)(=O)CC1, the Cmax was 1900 ng/mL (human male, plasma; oral, 400 mg single dose, arithmetic mean, alone).
The Cmax of Cc1nc(-c2ccc(OCC(C)C)c(C#N)c2)sc1C(=O)O is reported as 1760 ng/mL (human male, plasma; oral, 80 mg once daily, day 7 or 21, arithmetic mean).
For N#Cc1ccnc(N2C(=O)CC[C@H]2C(=O)N(c2cncc(F)c2)[C@H](C(=O)NC2CC(F)(F)C2)c2ccccc2Cl)c1, the Cmax was 5000 ng/mL (human patients, plasma; oral, 500 mg once daily, consolidation cycle 1 day 1, mean, with: chemotherapy).
For O=C(NCc1ccncc1)C12CC3CC(C1)CC(c1ccc(Cl)cc1)(C3)C2, the Cmax was 5160 ± 4290 ng/mL (human patients, plasma; oral, 500 mg, day 1 and day 28 combined).
O=C(c1ccc(OCCN2CCCCC2)cc1)c1c(-c2ccc(O)cc2)sc2cc(O)ccc12 has a Cmax of 0.36 nM (healthy humans, plasma; oral, 60 mg, with: water).
CNC(=O)c1cccc2cc(Oc3ccnc4cc(OCC5(N)CC5)c(OC)cc34)ccc12 gave a Cmax of 293 ± 140 ng/mL (human; oral, 10 mg, single dose, continuous arm).
The Cmax of NS(=O)(=O)OC[C@@H]1C[C@@H](n2ccc3c(N[C@H]4CCc5ccccc54)ncnc32)C[C@@H]1O is reported as 178 ng/mL (human; intravenous, 20 mg/m^2 single dose, day 1).
The Cmax of Cc1ccc(NC(=O)c2ccc(CN3CCN(C)CC3)cc2)cc1Nc1nccc(-c2cncc(-c3oncc3C)c2)n1 is reported as 945 ng/mL (older healthy human adults, plasma; oral, 25.0 mg single dose, fed, mean).
With O=C(/C=C/c1cccc(S(=O)(=O)Nc2ccccc2)c1)NO[C@@H]1O[C@H](C(=O)O)[C@@H](O)[C@H](O)[C@H]1O the Cmax was 72800 ng/mL (human severe liver dysfunction, plasma; intravenous, 400 mg/m^2, 30 min infusion, cycle 1 day -7, with: belinostat 400 mg/m^2 iv).
For CON(C)C(=O)N1N=C(c2cc(F)ccc2F)S[C@@]1(CCCN)c1ccccc1, the Cmax was 6.68 ng/mL (human; intravenous, 0.8 mg/m^2, cycle 1 day 3, geometric mean).
The Cmax of Cc1nc(Nc2ncc(C(=O)Nc3c(C)cccc3Cl)s2)cc(N2CCN(CCO)CC2)n1 is reported as 8 ± 4.5 ng/mL (human, plasma; oral, 100 mg single dose, day 6 fasted, arithmetic mean, with: omeprazole 40 mg daily steady state, 10 h before).
With CC(C)[C@@H](CS(=O)(=O)C(C)C)N1C(=O)[C@@](C)(CC(=O)O)C[C@H](c2cccc(Cl)c2)[C@H]1c1ccc(Cl)cc1 the Cmax was 442 ng/mL (human, plasma; oral, 60 mg, new tablet, fed, geometric LS mean).
The Cmax of O=S(=O)(c1cccc2cnccc12)N1CCCNCC1 is reported as 1.41 ng/mL (human, plasma; oral, 30 mg).
With CC(C)NC[C@@H](C(=O)N1CCN(c2ncnc3c2[C@H](C)C[C@H]3O)CC1)c1ccc(Cl)cc1 the Cmax was 78.5 ng/mL (human, Severe hepatic function, plasma; oral, 100 mg single dose, NCI classification, geometric mean).
With C[C@@H](c1nc(-c2ccc(C#N)cc2)cs1)[C@](O)(Cn1cncn1)c1cc(F)ccc1F the Cmax was 6700 ng/mL (healthy humans, plasma; oral, 200 mg once daily, with: mycophenolate mofetil 1 g single dose).
CC[C@@]1(O)C(=O)OCc2c1cc1n(c2=O)Cc2cc3c(CN(C)C)c(O)ccc3nc2-1 has a Cmax of 9.29 ng/mL (human patients, plasma; oral, 4 mg, day 1, geometric mean, alone).
For Cc1ccc(NC(=O)c2ccc(CN3CCNCC3)cc2)cc1Nc1nccc(-c2cccnc2)n1, the Cmax was 727 ng/mL (human patients, plasma; oral, 400 mg/day of imatinib, day 14 of cycle 1, with: IL-2 6 MIU/day days 10-14).
CCCC[C@H](NC(C)=O)C(=O)N[C@H]1CCC(=O)NC[C@@H](C(=O)N[C@@H](Cc2c[nH]c3ccccc23)C(N)=O)NC(=O)[C@H](CCCNC(=N)N)NC(=O)[C@@H](Cc2ccccc2)NC(=O)[C@H](Cc2c[nH]cn2)NC1=O has a Cmax of 54.4 ng/mL (healthy human, both sexes, plasma; subcutaneous, 3.0 mg once daily, day 1, arithmetic mean).
The Cmax of CC[C@H](C)[C@H](NC(=O)[C@H](CC(C)C)NC(=O)[C@H](Cc1c[nH]c2ccccc12)NC(=O)[C@H](C)NC(=O)[C@@H](NC(=O)[C@H](Cc1ccccc1)NC(=O)[C@H](CC(=O)O)NC(=O)[C@H](CCCNC(=N)N)NC(=O)[C@H](C)NC(=O)[C@H](C)NC(=O)[C@H](CC(C)C)NC(=O)[C@H](C)NC(=O)[C@H](CC(=O)O)NC(=O)[C@H](CC(C)C)NC(=O)[C@@H](NC(=O)[C@@H](NC(=O)[C@H](C)NC(=O)[C@H](CC(C)C)NC(=O)[C@H](CCC(=O)O)NC(=O)[C@H](CO)NC(=O)[C@H](CO)NC(=O)[C@H](Cc1ccccc1)NC(=O)[C@@H](NC(=O)CNC(=O)[C@H](CCC(=O)O)NC(=O)CNC(=O)[C@@H](N)Cc1cnc[nH]1)[C@@H](C)O)[C@@H](C)O)[C@@H](C)CC)[C@@H](C)CC)C(=O)N[C@@H](C)C(=O)N[C@H](C(=O)N[C@@H](CCCCN)C(=O)N[C@H](C(=O)N[C@H](C(=O)N[C@@H](CC(=O)O)C(=O)N[C@@H](CCCCN)C(=O)N[C@@H](CCCCN)C(=O)N[C@@H](CCCCN)C(=O)N[C@@H](CCCCN)C(=O)N[C@@H](CCCCN)C(=O)N[C@@H](CCCCN)C(N)=O)[C@@H](C)O)[C@@H](C)CC)[C@@H](C)O is reported as 54.1 nM (immunoaffinity LC-MS/MS; healthy human subjects, plasma; intravenous infusion, 1 mg single dose, infused over 15 min).
The Cmax of CCc1cc2c(cc1N1CCC(N3CCOCC3)CC1)C(C)(C)c1[nH]c3cc(C#N)ccc3c1C2=O is reported as 84.2 ng/mL (LC-MS, noncompartmental; human patients under sample A years, plasma; oral, 600 mg/day, cycle 1 day 1, geometric mean).
C=CC(=O)N1CCC([C@@H]2CCNc3c(C(N)=O)c(-c4ccc(Oc5ccccc5)cc4)nn32)CC1 has a Cmax of 406 ng/mL (human; oral, 480 mg, single dose, mean).
The Cmax of CNc1nc(Nc2ccc(-n3cnc(C)n3)c(OC)c2)nc2c1CC[C@H]2c1ccc(F)cc1 is reported as 539 ng/mL (human; oral, 100 mg once daily, day 14, multiple ascending dose, geometric mean).
Nc1ccn([C@@H]2O[C@H](CO)[C@@H](O)C2(F)F)c(=O)n1 has a Cmax of 15100 ng/mL (human cancer patients, plasma; intravenous, 1000 mg/m^2, cycle 1 day 1, given alone).
With C=CC(=O)Nc1cc(Nc2ncc(C(=O)OC(C)C)c(-c3cn(C)c4ccccc34)n2)c(OC)cc1N(C)CCN(C)C the Cmax was 70 ng/mL (human, plasma; oral, 160 mg, arithmetic mean, alone).
The Cmax of CC(C)(Sc1ccncc1-c1ccc(C#N)c2ccccc12)C(=O)O is reported as 3.37 ng/mL (human, plasma; oral, 2.5 mg, with: febuxostat 80 mg).
For CCOc1c([C@H](C)n2nc(C)c3c(N)ncnc32)cc(Cl)c(F)c1[C@@H]1CNC(=O)C1, the Cmax was 1650 ± 272 nM (healthy fasted humans, plasma; oral, 20 mg).
For O=C(O)CNC(=O)c1c(O)c2ccccc2n(OCC2CC2)c1=O, the Cmax was 2310 ± 621 ng/mL (LC-MS/MS; human, blood; oral, 200 mg multiple doses).
For CS(=O)(=O)OC[C@H](O)[C@@H](O)COS(C)(=O)=O, the Cmax was 470000 ng/mL (human patients, plasma; intravenous infusion, 14 g/m^2, day -6, 2-hour infusion).
With COc1cc(Nc2ncc3c(n2)-c2ccc(Cl)cc2C(c2c(F)cccc2OC)=NC3)ccc1C(=O)O the Cmax was 2910 nM (human, plasma; oral, 50 mg twice daily, day 7, steady state geometric mean).
O=C1Nc2cc3[nH]nc(-c4ccncc4)c3cc2CN1Cc1ccccc1 has a Cmax of 1410 to 3630 ng/mL (human, plasma; intravenous infusion, 3.6 mg/kg, infusion 1 h).

For quick reference, copied from above:
For CON(C)C(=O)N1N=C(c2cc(F)ccc2F)S[C@@]1(CCCN)c1ccccc1, the Cmax was 6.68 ng/mL (human; intravenous, 0.8 mg/m^2, cycle 1 day 3, geometric mean).
The Cmax of NS(=O)(=O)OC[C@@H]1C[C@@H](n2ccc3c(N[C@H]4CCc5ccccc54)ncnc32)C[C@@H]1O is reported as 178 ng/mL (human; intravenous, 20 mg/m^2 single dose, day 1).
With CC(C)NC[C@@H](C(=O)N1CCN(c2ncnc3c2[C@H](C)C[C@H]3O)CC1)c1ccc(Cl)cc1 the Cmax was 78.5 ng/mL (human, Severe hepatic function, plasma; oral, 100 mg single dose, NCI classification, geometric mean).
The Cmax of Cc1ccc(NC(=O)c2ccc(CN3CCN(C)CC3)cc2)cc1Nc1nccc(-c2cncc(-c3oncc3C)c2)n1 is reported as 945 ng/mL (older healthy human adults, plasma; oral, 25.0 mg single dose, fed, mean).
